Experimental data collected from several papers.
Numbered parts are unrelated; each lists some results of a single study. Substitutions count along the parent as printed.

Set 1
Target: Prothrombin, mature alpha-thrombin (F2, Homo sapiens, UniProt P00734)
Technique: aptamer microarray, sandwich
Form: DNA with 2'F-ANA
Sample: in vitro
Tested at: 200 nM
Setting: whole 15-mer aptamer, many near background
Added: Cy3 exosite-II aptamer, 400 nM
Reading: higher = stronger binding
Oligonucleotide: GGTTGGTGTGGTTGG
Modification	mean fluorescence intensity
2'F-ANA at 1 2 4 5 9 11 13 14	44.3 a.u.
2'F-ANA at 2 6 10 13 15	111 a.u.
2'F-ANA at 1 2 4 8 10 12 13 15	58.6 a.u.
2'F-ANA at 1 2 3 6 7 8 11 14 15	72.5 a.u.
2'F-ANA at 1 2 6 7 8 9 11 15	154 a.u.
2'F-ANA at 2 4 12 13	456 a.u.
2'F-ANA at 2 4 5 6 7 10 11 13	77.3 a.u.
2'F-ANA at 1 5 7 8 13 15	62.2 a.u.
2'F-ANA at 1 3 4 5 8 9 11 13	49.8 a.u.
2'F-ANA at 1 2 5 9 14	43.9 a.u.
2'F-ANA at 1 2 5 7 8 12 15	133 a.u.
2'F-ANA at 3 6 7 9 10 12 14	453 a.u.
2'F-ANA at 1 3 4 6 9 11 13 14	54.6 a.u.
2'F-ANA at 5 8 9 15	87.9 a.u.
2'F-ANA at 2 3 7 8 10 14	341 a.u.
2'F-ANA at 4 5 6 7 8 12 14	46.6 a.u.
2'F-ANA at 1 4 7 13 15	90.3 a.u.
2'F-ANA at 3 7 8 9 12 13 15	1310 a.u.
2'F-ANA at 1 3 4 5 7 11 14	44.8 a.u.
2'F-ANA at 3 4 7 9 11 12	824 a.u.

Set 2
Target: CREBL2, bZIP domain (human)
Technique: DHFR protein complementation
Sample: yeast
Setting: single substitutions, most at no-binding floor
Reference: wild-type JUN-FOS pair
Reading: higher = stronger binding
Parent: JUN, bZIP domain (human); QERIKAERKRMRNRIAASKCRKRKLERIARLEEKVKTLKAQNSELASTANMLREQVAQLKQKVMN; partner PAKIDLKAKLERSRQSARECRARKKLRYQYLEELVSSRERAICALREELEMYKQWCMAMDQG
Change	binding fitness [natural log]
K34F	-1.39
S43E	-1.28
Q41P	-1.54
E44V	-1.51
V35Y	-1.62
T37P	-1.46
R30K	-1.24
Q41S	-1.57
A49E	-1.51
T37M	-1.23
R53G	-1.34
I28P	-1.53
L31K	-1.59
E32H	-1.43
E44G	-1.42
L31S	-1.52
T37C	-1.51
L45Y	-1.52
L45H	-1.48
V35F	-1.47
M51W	-1.48
K36T	-1.5
S47F	-1.42
A29W	-1.41
A29V	-1.6

Set 3
Target: Sal-like protein 4, full length isoform A (SALL4, Homo sapiens, UniProt Q9UJQ4, residues 1-1053)
UniProt Q9UJQ4, sequence (whole entry, looked up): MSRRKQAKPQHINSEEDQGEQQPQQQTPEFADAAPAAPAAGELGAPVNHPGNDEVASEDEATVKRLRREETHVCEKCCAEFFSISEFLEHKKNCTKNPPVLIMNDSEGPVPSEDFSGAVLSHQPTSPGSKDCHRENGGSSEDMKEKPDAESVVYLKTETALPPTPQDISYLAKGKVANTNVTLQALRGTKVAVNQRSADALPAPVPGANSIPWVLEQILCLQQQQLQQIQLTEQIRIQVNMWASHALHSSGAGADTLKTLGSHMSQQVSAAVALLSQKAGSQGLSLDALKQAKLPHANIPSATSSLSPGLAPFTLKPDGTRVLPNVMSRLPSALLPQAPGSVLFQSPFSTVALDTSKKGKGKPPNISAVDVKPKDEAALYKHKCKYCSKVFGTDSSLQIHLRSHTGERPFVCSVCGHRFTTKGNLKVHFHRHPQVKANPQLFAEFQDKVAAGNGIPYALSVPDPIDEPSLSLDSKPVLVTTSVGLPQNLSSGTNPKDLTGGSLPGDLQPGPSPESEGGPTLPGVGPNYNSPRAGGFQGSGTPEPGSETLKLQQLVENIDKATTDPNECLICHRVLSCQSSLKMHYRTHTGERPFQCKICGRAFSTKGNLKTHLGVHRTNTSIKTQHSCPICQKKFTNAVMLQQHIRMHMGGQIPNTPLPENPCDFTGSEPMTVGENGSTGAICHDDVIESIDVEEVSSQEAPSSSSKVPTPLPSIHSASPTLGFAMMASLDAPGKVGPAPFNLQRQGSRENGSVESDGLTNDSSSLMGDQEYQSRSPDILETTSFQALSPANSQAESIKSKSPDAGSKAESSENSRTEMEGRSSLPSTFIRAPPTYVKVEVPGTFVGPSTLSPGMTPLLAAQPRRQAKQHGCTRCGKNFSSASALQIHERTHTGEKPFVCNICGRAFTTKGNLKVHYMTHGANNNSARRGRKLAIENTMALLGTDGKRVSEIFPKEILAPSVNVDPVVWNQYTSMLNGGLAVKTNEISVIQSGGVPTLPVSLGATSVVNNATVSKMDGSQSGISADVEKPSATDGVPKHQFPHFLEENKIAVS
Technique: universal PBM
Form: double-stranded DNA, one strand shown
Sample: in vitro
Tested at: 600 nM
Setting: 8-mer, flanks averaged, mean of replicates
Reading: higher = stronger binding
Oligonucleotide	E-score
CGCACGAA	-0.0443
GTCGCACA	-0.126
AAATAAAC	0.361
AACCTACT	-0.0138
GGGTTTTA	0.00575
GTAACTAA	0.0961
GCGTTACC	-0.248
CCATGATA	0.184
CAGAGAAG	0.0106
GCGAGGCA	-0.155
ATGGGGCA	-0.205
CGCTTCCA	-0.189
CTCGAGTC	-0.0942
AACAAAAT	0.278
CCAAGCAG	-0.188
AGAACGCT	-0.0667
CCCCGATC	-0.367
AACTACTA	0.243
AGCCGGGC	-0.44
ATGCTCCC	-0.258
ACGCAAAA	0.0392
AAAAATGT	0.321
AATTCCCG	0.0417
CCGTTCTA	0.0299
ATATCAAT	0.365

Set 4
Target: Ras GTPase-activating protein-binding protein 1, full length (G3BP1, Homo sapiens, UniProt Q13283)
UniProt Q13283, sequence (whole entry, looked up): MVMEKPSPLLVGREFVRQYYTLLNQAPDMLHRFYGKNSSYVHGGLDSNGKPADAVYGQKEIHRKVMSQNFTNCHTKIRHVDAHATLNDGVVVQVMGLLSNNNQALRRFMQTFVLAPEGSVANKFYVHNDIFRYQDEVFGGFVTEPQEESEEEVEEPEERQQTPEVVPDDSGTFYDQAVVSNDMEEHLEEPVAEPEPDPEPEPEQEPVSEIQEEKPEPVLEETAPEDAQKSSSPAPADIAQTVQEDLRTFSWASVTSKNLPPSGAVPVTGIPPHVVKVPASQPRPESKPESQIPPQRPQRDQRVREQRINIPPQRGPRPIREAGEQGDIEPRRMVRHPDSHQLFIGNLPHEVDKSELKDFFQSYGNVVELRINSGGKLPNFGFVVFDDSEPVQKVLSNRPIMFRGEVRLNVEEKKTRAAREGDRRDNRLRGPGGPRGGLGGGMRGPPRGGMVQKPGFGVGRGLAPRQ
Technique: RNA Bind-n-Seq
Form: RNA
Sample: in vitro
Tested at: 200 nM
Setting: whole 134-nt RNA, ends assumed
Added: 150 mM LiCl
Reference: input library
Reading: higher = stronger binding
All molecules: 7-deaza-guanosine replaces G
Constant ends, left off below: GGGAGUUCUACAGUCCGACGAUC … UGGAAUUCUCGGGUGUCAAGG
Oligonucleotide	log2 enrichment
GUCCUGUGCUACACAUCGUAUGUACCGAAUCGGGGUUUUUGGGGUUUUUGGGGUGGGGAAAGUAUUAUGUUACGCCGUUCGGAUCUGCAC	-0.407
UGGCCCUCGUGGCAUGCGGGGAGGAAGAGGUGGCCUCAUGGAUCGUGGUGGUCCCGGUGGAAUGUUCAGAGGUGGCCGUGGUGGAGACAG	0.292
UCCUGUGCUACACAUCGUAUGUACCGAAUCGGGUUUUUUUGGGUUUUUUUGGGUUUGGGAAAGUAUUAUGUUACGCCGUUCGGAUCUGCA	1.37
CUGUGCUACACAUCGUAUGUACCGAAUCGGGGCCCCCCCGGGCCCCCCCGGCCCCCCCGGGGAAAGUAUUAUGUUACGCCGUUCGGAUCU	0.284
CAAGUCCUGUGCUACACAUCGUAUGUACCGAAUCGGGGUUUGGUUUGGUUUGGGGAAAGUAUUAUGUUACGCCGUUCGGAUCUGCACUUC	0.137
UGGCCGUGGUGGCAUGCGGGGAGGAAGAGGUGGCCUCAUGGAUCGUGGUGGUCCCGGUGGAAUGUUCAGAGGUGGCCGUGGUGGAGACAG	0.33
CUCCAGAAAGCAGUGGGGCCUGAGAUCACCAAGACAGACCUGGUCCCUGCCUUCCAGAACCUGAUGAAAGACUGUGAGGCCGAGGUGAGG	-1.35
GCAGGAAGUAAAAACAAAUGGAAAUGCUUCGGAUAGUGGCAGGGGUGGGGGUUGCUAAGGAAAGGGUGGGAUGGGAGUGGGUAAAGACUU	-0.0129
CUCAAGUCCUGUGCUACACAUCGUAUGUACCGAAUCGGUUUGGUUUGGUUUGGGAAAGUAUUAUGUUACGCCGUUCGGAUCUGCACUUCC	0.0168
CUCAAGUCCUGUGCUACACAUCGUAUGUACCGAAUCGGGGAAGGGAAGGAAGGGAAAGUAUUAUGUUACGCCGUUCGGAUCUGCACUUCC	-0.461
UUUCUCCACAGGAGCCCCGCAAGUGAGCCAGCCACUGCGAGAGCAGAGUGAGGAUAUACCUGGAGCCAUUUCCUCUGCCCUGGCAGCCAU	1.17

Set 5
Target: ABI1, truncated, D143A, DHFR fusion (Arabidopsis thaliana)
Technique: DHFR PCA, deep sequencing
Sample: yeast
Setting: methotrexate growth selection, single substitutions
Added: (+)-ABA 0.11 µM
Reference: wild-type fitted maximum
Reading: higher = stronger binding
Parent: PYL1, truncated, DHFR fusion (Arabidopsis thaliana); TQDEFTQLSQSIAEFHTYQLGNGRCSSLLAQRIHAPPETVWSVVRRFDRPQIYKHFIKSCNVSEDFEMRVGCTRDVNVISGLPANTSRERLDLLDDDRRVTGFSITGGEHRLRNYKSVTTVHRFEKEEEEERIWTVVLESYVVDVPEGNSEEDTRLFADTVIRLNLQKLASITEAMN; partner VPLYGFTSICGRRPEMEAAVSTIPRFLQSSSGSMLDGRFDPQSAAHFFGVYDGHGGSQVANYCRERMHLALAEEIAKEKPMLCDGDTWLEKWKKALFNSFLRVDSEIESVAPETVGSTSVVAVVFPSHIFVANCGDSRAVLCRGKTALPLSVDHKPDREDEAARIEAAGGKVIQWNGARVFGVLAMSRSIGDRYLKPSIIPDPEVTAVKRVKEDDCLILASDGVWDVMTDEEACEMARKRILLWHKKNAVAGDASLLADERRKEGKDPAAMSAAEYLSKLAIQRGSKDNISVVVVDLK
Change	relative binding score [%]
M68E	0.482
R32I	35.9
R45L	-0.733
E151I	32.9
Q51V	5.81
D159K	-8.3
S104I	3.72
E139C	13.7
K168P	1.82
R132E	59.6
I52D	44.6
R113A	13.5
E64K	51.1
V161C	53.8
Y18Q	-1.39
E109N	52.4
L91K	-3.27

Set 6
Target: CCND2, cyclin fold, Cln2 fusion (human)
Technique: yeast growth competition, sequencing
Sample: yeast
Setting: weak parent motif
Reference: not given
Reading: higher = stronger binding
Parent: RP1L1 docking peptide (human); TLGLGPLSFTLED; partner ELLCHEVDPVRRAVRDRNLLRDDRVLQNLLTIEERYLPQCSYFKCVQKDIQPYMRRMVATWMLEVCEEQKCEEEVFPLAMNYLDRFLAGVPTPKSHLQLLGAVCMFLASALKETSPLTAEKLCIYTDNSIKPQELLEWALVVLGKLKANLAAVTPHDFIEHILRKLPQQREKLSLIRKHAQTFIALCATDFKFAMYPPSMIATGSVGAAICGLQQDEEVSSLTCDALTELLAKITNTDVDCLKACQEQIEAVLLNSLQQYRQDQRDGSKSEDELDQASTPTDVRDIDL
Change	normalised enrichment score
G3A	-0.15
E12A	0.125
L4A	0.176
D13A	-0.00563
F9A	-0.0192
L11A	-0.103
T10A	0.472

Set 7
Substance: PhoQ, residues 284 288 289 292 302 303 AGGCYF
Technique: Sort-seq
Item: YFP reporter
Sample: E. coli
Setting: PhoQ-PhoP variant library
Added: 10 µM Mg2+
Reference: high Mg2+ state
Reading: higher = stronger signaling
target	fold induction
PhoP, residues 12 14 15 18 19 LHTVL (Escherichia coli, UniProt P23836)	17.7
PhoP, residues 12 14 15 18 19 NQCAL (Escherichia coli, UniProt P23836)	13.8
PhoP, residues 12 14 15 18 19 TQAML (Escherichia coli, UniProt P23836)	20.2

Some of these lines once more (set 6):
Change	normalised enrichment score
L4A	0.176
G3A	-0.15
T10A	0.472
D13A	-0.00563
F9A	-0.0192
E12A	0.125
L11A	-0.103
